{"data": "Measurements gathered from unrelated publications", "note": "Every numbered part comes from another study and shows a few of its results, in no order. “And” joins repeats or separate records; there may be more than shown.", "chain of UniProt Q8TDC3 (whole entry, looked up)": "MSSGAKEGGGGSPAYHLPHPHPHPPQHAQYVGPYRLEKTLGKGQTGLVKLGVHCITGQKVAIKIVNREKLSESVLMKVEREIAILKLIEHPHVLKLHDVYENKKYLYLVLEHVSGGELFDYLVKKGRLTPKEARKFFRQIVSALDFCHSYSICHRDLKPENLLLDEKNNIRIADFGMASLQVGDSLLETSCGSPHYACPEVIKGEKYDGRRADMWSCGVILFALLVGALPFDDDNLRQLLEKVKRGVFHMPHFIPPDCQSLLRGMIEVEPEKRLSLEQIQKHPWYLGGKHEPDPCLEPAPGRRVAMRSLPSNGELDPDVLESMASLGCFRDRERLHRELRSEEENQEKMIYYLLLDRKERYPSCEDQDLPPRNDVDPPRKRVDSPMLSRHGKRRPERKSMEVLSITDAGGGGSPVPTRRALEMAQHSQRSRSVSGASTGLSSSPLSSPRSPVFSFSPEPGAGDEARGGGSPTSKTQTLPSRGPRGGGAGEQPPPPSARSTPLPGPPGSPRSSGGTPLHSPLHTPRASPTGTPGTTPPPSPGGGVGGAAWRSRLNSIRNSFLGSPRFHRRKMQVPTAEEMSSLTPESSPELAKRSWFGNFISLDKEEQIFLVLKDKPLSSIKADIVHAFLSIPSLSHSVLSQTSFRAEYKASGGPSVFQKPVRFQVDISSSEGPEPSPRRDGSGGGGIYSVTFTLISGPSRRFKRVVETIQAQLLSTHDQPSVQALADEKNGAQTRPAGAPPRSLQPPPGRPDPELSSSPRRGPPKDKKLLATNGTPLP", "chain of UniProt Q8NG66 (whole entry, looked up)": "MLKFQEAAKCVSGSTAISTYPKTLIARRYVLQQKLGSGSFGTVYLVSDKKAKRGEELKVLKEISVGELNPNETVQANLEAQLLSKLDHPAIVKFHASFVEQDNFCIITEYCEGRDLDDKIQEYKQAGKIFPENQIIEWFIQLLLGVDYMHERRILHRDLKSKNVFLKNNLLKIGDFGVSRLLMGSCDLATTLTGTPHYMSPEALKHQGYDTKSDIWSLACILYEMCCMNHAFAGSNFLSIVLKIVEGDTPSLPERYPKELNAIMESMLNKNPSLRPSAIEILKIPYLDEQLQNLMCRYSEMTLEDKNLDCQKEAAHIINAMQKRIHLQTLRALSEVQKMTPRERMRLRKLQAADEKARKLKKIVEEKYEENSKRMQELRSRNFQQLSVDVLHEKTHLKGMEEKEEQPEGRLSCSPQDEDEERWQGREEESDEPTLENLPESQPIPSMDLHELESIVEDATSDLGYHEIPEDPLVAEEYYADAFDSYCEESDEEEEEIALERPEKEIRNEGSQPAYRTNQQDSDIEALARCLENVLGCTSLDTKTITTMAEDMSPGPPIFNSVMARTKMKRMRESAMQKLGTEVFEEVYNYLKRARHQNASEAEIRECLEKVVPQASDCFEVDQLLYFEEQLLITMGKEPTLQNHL", "chain of UniProt P22455 (whole entry, looked up)": "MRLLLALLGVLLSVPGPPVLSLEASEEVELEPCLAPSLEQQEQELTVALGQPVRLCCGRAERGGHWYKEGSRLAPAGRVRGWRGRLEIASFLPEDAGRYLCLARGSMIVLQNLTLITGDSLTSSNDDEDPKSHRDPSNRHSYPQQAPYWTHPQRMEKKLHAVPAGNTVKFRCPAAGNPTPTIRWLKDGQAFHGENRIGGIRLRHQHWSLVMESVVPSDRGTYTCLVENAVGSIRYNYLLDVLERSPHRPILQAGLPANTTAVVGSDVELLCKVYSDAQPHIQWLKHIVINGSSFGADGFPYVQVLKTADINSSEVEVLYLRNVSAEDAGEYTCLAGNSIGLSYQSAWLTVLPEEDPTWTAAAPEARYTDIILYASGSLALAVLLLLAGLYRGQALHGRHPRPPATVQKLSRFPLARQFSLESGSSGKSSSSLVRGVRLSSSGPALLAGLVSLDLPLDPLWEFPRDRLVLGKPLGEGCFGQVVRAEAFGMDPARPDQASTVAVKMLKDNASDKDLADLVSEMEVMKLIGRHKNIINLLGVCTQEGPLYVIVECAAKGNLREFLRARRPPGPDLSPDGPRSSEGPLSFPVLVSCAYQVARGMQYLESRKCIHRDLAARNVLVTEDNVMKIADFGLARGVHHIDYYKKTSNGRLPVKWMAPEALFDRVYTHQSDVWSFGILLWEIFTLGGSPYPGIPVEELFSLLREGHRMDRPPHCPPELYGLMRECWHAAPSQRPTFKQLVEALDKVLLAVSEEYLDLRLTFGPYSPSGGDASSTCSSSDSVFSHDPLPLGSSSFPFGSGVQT"}
{"data": "Sample 1", "target": "DNA polymerase theta, helicase domain (POLQ, Homo sapiens, UniProt O75417)", "read-out": "ATPase activity", "concentration": "concentration not given", "notes": "average", "with": "with ssDNA", "chain of UniProt O75417 (whole entry, looked up)": "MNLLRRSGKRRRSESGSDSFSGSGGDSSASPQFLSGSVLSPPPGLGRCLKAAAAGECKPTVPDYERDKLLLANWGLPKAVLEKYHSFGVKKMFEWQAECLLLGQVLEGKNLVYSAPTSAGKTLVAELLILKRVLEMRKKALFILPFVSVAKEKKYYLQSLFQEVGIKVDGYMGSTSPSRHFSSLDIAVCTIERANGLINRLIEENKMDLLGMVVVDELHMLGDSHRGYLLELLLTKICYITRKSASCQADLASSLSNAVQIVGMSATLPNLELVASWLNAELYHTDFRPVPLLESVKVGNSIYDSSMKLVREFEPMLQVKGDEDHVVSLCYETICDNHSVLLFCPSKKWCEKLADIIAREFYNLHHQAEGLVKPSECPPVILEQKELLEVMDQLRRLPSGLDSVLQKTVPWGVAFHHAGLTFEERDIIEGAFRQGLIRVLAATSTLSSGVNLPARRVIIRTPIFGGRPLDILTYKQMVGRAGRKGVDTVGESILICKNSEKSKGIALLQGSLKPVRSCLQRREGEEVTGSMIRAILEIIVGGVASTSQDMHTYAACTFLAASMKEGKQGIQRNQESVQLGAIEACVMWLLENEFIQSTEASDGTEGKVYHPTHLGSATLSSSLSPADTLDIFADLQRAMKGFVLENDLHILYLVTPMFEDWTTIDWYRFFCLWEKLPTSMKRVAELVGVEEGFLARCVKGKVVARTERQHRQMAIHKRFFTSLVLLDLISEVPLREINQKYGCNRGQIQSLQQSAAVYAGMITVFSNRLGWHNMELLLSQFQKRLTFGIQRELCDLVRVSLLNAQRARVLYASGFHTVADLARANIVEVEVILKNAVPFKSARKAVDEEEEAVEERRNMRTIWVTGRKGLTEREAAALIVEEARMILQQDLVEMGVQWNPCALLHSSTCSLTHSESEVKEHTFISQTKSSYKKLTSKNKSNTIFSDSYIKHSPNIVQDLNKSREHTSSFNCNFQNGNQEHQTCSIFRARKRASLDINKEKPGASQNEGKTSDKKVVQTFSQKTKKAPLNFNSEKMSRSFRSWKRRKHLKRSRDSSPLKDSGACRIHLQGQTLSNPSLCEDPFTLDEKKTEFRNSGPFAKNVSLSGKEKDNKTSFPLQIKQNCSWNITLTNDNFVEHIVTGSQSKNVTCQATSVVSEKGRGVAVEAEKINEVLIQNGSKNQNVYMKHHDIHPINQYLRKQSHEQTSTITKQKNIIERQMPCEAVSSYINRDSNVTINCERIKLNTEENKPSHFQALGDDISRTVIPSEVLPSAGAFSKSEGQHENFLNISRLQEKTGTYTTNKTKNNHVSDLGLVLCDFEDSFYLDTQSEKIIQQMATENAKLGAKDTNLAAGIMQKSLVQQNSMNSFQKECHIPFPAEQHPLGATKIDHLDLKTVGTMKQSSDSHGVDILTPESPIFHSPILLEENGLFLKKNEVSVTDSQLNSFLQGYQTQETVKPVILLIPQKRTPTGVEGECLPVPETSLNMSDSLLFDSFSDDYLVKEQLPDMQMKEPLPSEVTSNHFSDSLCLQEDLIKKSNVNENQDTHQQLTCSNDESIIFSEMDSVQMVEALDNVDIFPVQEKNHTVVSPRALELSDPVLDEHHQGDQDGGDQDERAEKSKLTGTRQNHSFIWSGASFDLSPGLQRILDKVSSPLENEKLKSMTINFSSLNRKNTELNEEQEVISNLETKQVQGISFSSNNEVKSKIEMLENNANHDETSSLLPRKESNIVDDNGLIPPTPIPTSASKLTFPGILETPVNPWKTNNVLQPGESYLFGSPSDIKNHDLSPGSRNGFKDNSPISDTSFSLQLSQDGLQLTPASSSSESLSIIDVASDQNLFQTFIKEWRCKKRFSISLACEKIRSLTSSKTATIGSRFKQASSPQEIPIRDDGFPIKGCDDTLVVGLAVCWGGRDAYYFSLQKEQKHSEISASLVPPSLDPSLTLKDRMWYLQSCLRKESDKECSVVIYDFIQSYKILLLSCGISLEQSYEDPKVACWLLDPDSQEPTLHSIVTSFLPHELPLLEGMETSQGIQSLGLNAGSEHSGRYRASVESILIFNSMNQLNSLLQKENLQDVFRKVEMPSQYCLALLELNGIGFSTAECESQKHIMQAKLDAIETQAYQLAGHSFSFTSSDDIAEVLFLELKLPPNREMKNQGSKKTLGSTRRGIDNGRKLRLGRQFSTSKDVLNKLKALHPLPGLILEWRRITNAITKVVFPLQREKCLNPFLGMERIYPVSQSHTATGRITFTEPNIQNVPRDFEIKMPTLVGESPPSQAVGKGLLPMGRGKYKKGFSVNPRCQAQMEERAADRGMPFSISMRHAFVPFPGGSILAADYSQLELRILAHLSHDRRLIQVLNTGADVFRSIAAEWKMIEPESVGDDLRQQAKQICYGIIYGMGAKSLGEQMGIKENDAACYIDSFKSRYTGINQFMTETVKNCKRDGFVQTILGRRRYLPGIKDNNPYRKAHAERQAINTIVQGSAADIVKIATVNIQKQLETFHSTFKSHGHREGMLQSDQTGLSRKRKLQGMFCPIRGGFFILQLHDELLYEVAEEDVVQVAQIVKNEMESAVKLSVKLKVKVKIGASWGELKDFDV"}
{"SMILES": "CC1(C)Cc2c(-c3ccccc3)c(-c3ccc(Cl)cc3)c(CC(=O)O)n2C1", "remaining activity": "68.3%"}
{"SMILES": "CCCCCCCCCCCCCCCC(=O)OC[C@H](O)[C@H]1OC(=O)C(O)=C1O", "remaining activity": "23%"}
{"SMILES": "Cc1ccccc1C(=O)Nc1sc2c(c1C(=O)O)CCC(C(C)(C)C)C2 (centres unmarked)", "remaining activity": "65.8%"}
{"SMILES": "N#Cc1c(O)c2c(-c3ccc(-c4ccccc4O)cc3)csc2[nH]c1=O", "remaining activity": "50.7%"}
{"SMILES": "CCCCCCCC/C=C\\CCCCCCCC(=O)O", "remaining activity": "100%"}
{"SMILES": "O=C(Nc1noc2ccccc12)c1ccc(F)cc1", "remaining activity": "48.6%"}
{"SMILES": "O=C(Nc1ccccc1C(=O)O)c1cccc(S(=O)(=O)N2CCCC2)c1", "remaining activity": "56.3%"}
{"SMILES": "O=C(Nc1ccccc1F)c1ccc2c(Cl)c3c(nc2c1)CCC3", "remaining activity": "80%"}
{"SMILES": "CCc1ccc(/C=C2/SC(=S)NC2=O)cc1", "remaining activity": "46.6%"}
{"data": "Sample 2", "SMILES": "N#Cc1ccc(Nc2ccc3[nH]c(=O)[nH]c3c2)c(Cl)c1", "method": "competition with immobilised ligand", "concentration": "1 µM"}
{"target": "Dual specificity protein kinase CLK1 (CLK1, Homo sapiens, UniProt P49759)", "read-out": "cell-free assay", "remaining binding [%]": 100}
{"target": "Serine/threonine-protein kinase Nek11 (NEK11, Homo sapiens, UniProt Q8NG66)", "read-out": "cell-free assay", "remaining binding [%]": 100}
{"target": "Tyrosine-protein kinase ABL1, phosphorylated (ABL1, Homo sapiens, UniProt P00519, Q252H)", "read-out": "cell-free assay", "remaining binding [%]": 100}
{"target": "Casein kinase I isoform alpha (CSNK1A1, Homo sapiens, UniProt P48729)", "read-out": "cell-free assay", "remaining binding [%]": 100}
{"target": "Fibroblast growth factor receptor 4 (FGFR4, Homo sapiens, UniProt P22455)", "read-out": "cell-free assay", "remaining binding [%]": 100}
{"target": "TRAF2 and NCK-interacting protein kinase (TNIK, Homo sapiens, UniProt Q9UKE5)", "read-out": "cell-free assay", "remaining binding [%]": 99}
{"target": "Serine/threonine-protein kinase LATS2 (LATS2, Homo sapiens, UniProt Q9NRM7)", "read-out": "cell-free assay", "remaining binding [%]": 95}
{"target": "Ribosomal protein S6 kinase alpha-4, C-terminal kinase domain (RPS6KA4, Homo sapiens, UniProt O75676)", "read-out": "cell-free assay", "remaining binding [%]": 95}
{"target": "Serine/threonine-protein kinase ICK (CILK1, Homo sapiens, UniProt Q9UPZ9)", "read-out": "binding", "remaining binding [%]": 97}
{"target": "Serine/threonine-protein kinase BRSK1 (BRSK1, Homo sapiens, UniProt Q8TDC3)", "read-out": "cell-free assay", "remaining binding [%]": 100}
{"target": "Epidermal growth factor receptor (EGFR, Homo sapiens, UniProt P00533, L861Q)", "read-out": "cell-free assay", "remaining binding [%]": 100}
{"target": "Mast/stem cell growth factor receptor Kit (KIT, Homo sapiens, UniProt P10721, V559D/V654A)", "read-out": "cell-free assay", "remaining binding [%]": 96}
{"target": "Activated CDC42 kinase 1 (TNK2, Homo sapiens, UniProt Q07912)", "read-out": "cell-free assay", "remaining binding [%]": 90}
{"data": "Sample 3", "SMILES": "Cn1cnc2cc3c(Nc4cccc(Br)c4)ncnc3cc21", "read-out": "enzyme activity", "action": "inhibitor", "concentration": "0.5 µM", "baseline": "control"}
{"target": "Serine/threonine-protein kinase N2 (PKN2, Homo sapiens, UniProt Q16513)", "remaining activity [%]": 85.7}
{"target": "Mitogen-activated protein kinase kinase kinase 2 (MAP3K2, Homo sapiens, UniProt Q9Y2U5)", "remaining activity [%]": 97.6}
{"target": "Serine/threonine-protein kinase Nek9 (NEK9, Homo sapiens, UniProt Q8TD19)", "remaining activity [%]": 90}
{"target": "Dual specificity tyrosine-phosphorylation-regulated kinase 4 (DYRK4, Homo sapiens, UniProt Q9NR20)", "remaining activity [%]": 97.5}
{"target": "NT-3 growth factor receptor (NTRK3, Homo sapiens, UniProt Q16288)", "remaining activity [%]": 81.4}
{"target": "Mitogen-activated protein kinase kinase kinase 8 (MAP3K8, Homo sapiens, UniProt P41279)", "remaining activity [%]": 90.1}
{"target": "Mitogen-activated protein kinase 10 (MAPK10, Homo sapiens, UniProt P53779)", "remaining activity [%]": 104}
{"target": "STE20-like serine/threonine-protein kinase (SLK, Homo sapiens, UniProt Q9H2G2)", "remaining activity [%]": 67.8}
{"target": "Cyclin-dependent kinase 7 (CDK7, Homo sapiens, UniProt P50613)", "remaining activity [%]": 99.5}
{"target": "G protein-coupled receptor kinase 5 (GRK5, Homo sapiens, UniProt P34947)", "remaining activity [%]": 109}
{"target": "Aurora kinase A (AURKA, Homo sapiens, UniProt O14965)", "remaining activity [%]": 87.8}
{"target": "Calcium/calmodulin-dependent protein kinase type 1D (CAMK1D, Homo sapiens, UniProt Q8IU85)", "remaining activity [%]": 104}
{"target": "Proto-oncogene tyrosine-protein kinase ROS (ROS1, Homo sapiens, UniProt P08922)", "remaining activity [%]": 99.9}
{"target": "Rho-associated protein kinase 2 (ROCK2, Homo sapiens, UniProt O75116)", "remaining activity [%]": 88.5}
{"target": "Casein kinase II subunit alpha' (CSNK2A2, Homo sapiens, UniProt P19784)", "remaining activity [%]": 91.7}
{"target": "Cyclin-dependent kinase 2, with cyclin A (CDK2, Homo sapiens, UniProt P24941)", "remaining activity [%]": 90.1}
{"target": "Serine/threonine-protein kinase D1 (PRKD1, Homo sapiens, UniProt Q15139)", "remaining activity [%]": 99.4}
{"target": "Calcium/calmodulin-dependent protein kinase type 1G (CAMK1G, Homo sapiens, UniProt Q96NX5)", "remaining activity [%]": 94.2}
{"target": "Myotonin-protein kinase (DMPK, Homo sapiens, UniProt Q09013)", "remaining activity [%]": 98.5}
{"target": "Serine/threonine-protein kinase BRSK1 (BRSK1, Homo sapiens, UniProt Q8TDC3)", "remaining activity [%]": 81.6}
{"target": "Proto-oncogene tyrosine-protein kinase receptor Ret (RET, Homo sapiens, UniProt P07949)", "remaining activity [%]": 54.4}
{"target": "Protein-tyrosine kinase 2-beta (PTK2B, Homo sapiens, UniProt Q14289)", "remaining activity [%]": 92.7}
{"target": "Homeodomain-interacting protein kinase 3 (HIPK3, Homo sapiens, UniProt Q9H422)", "remaining activity [%]": 107}
{"data": "Mixed results", "read-out": "binding", "action": "competitor", "method": "NanoBRET", "cells": "HEK293"}
{"Structure (SMILES)": "C=C(F)C(=O)N1CCN(c2nc(OC[C@@H]3CCCN3C)nc3c2CCN(c2cccc4cccc(Cl)c24)C3)C[C@@H]1CC#N", "target": "GTPase HRas (HRAS, Homo sapiens, UniProt P01112)", "concentration": "625 nM", "normalized BRET": "93.9%"}
{"Structure (SMILES)": "CN1CCC[C@H]1COc1nc2c(c(N3CCN(S(C)(=O)=O)[C@@H](CC#N)C3)n1)CCN(c1cccc3cccc(Cl)c13)C2", "target": "GTPase KRas (KRAS, Homo sapiens, UniProt P01116, G13D)", "concentration": "11.1 µM", "normalized BRET": "10.5% and 10.6% and 7.79%"}
{"note": "For quick reference, copied from above (sample 1):"}
{"SMILES": "CC1(C)Cc2c(-c3ccccc3)c(-c3ccc(Cl)cc3)c(CC(=O)O)n2C1", "remaining activity": "68.3%"}
{"SMILES": "CCCCCCCCCCCCCCCC(=O)OC[C@H](O)[C@H]1OC(=O)C(O)=C1O", "remaining activity": "23%"}
{"SMILES": "Cc1ccccc1C(=O)Nc1sc2c(c1C(=O)O)CCC(C(C)(C)C)C2 (centres unmarked)", "remaining activity": "65.8%"}
{"SMILES": "N#Cc1c(O)c2c(-c3ccc(-c4ccccc4O)cc3)csc2[nH]c1=O", "remaining activity": "50.7%"}
{"SMILES": "CCCCCCCC/C=C\\CCCCCCCC(=O)O", "remaining activity": "100%"}
